Measured values collected from several papers.
Numbered parts are unrelated; each lists some results of a single study.
Chain of UniProt Q14004 (whole entry, looked up): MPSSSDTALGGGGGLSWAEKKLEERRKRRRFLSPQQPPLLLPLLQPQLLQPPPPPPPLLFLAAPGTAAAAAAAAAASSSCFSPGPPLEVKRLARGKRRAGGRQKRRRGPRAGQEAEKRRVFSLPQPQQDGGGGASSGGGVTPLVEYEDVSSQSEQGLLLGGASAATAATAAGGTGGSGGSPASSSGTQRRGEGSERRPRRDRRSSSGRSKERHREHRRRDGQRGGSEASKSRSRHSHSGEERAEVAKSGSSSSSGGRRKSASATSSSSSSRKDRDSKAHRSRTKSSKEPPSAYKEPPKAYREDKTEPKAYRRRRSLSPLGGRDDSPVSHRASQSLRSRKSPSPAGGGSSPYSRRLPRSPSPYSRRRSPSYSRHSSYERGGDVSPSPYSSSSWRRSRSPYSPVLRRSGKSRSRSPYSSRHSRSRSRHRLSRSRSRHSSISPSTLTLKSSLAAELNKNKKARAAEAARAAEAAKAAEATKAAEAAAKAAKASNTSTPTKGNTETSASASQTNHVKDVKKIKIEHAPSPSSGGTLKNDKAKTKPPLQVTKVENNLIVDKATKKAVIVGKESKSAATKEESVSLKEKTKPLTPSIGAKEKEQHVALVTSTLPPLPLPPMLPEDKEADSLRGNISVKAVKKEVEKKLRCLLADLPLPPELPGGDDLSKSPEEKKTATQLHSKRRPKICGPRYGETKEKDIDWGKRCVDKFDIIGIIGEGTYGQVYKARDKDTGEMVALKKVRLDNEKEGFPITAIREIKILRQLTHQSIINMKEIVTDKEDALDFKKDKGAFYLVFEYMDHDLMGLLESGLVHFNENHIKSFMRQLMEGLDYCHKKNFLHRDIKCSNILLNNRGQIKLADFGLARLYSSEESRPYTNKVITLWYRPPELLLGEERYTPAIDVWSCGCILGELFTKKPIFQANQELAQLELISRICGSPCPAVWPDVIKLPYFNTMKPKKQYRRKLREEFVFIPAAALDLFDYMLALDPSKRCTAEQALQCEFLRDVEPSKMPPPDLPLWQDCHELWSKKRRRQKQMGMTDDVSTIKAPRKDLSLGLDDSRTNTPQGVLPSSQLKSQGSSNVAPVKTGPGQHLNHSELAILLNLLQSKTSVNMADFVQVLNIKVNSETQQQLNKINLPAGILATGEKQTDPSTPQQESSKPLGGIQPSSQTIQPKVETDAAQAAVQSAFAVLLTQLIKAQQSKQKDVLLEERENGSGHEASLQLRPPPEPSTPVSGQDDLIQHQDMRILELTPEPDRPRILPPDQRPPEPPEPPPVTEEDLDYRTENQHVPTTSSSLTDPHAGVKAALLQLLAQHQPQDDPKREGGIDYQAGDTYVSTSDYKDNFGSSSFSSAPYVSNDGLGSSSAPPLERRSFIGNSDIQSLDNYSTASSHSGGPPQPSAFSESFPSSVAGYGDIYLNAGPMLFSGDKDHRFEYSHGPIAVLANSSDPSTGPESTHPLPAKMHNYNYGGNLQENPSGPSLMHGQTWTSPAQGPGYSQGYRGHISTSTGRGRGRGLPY
Chain of UniProt P11802 (whole entry, looked up): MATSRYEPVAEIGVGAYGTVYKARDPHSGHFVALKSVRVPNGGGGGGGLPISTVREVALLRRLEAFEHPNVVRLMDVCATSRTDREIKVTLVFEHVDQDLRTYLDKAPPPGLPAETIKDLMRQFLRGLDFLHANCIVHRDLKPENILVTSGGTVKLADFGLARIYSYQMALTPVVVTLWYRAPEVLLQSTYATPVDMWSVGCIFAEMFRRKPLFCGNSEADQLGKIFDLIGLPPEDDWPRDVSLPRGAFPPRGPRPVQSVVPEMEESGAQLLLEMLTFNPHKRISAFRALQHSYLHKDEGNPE
Chain of UniProt P49841 (whole entry, looked up): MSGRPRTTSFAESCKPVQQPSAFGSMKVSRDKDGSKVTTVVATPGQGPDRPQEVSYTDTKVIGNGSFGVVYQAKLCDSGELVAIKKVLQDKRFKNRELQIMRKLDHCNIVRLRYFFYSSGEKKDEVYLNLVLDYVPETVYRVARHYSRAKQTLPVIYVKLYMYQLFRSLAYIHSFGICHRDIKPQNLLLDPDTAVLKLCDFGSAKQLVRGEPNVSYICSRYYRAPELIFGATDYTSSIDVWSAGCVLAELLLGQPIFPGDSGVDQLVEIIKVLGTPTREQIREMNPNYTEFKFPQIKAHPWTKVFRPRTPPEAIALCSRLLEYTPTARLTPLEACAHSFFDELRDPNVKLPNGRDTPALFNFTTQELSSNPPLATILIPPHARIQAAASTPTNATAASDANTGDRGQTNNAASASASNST
Chain of UniProt P61075 (whole entry, looked up): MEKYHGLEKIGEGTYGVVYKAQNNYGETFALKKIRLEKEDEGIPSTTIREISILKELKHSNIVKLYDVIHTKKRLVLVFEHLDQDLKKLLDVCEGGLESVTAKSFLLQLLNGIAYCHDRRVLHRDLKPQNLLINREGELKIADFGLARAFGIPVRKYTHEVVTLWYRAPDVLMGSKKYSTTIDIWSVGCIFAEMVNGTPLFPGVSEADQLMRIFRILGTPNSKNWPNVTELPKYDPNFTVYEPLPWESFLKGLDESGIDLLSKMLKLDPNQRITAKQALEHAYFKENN
Chain of UniProt Q9UQM7 (whole entry, looked up): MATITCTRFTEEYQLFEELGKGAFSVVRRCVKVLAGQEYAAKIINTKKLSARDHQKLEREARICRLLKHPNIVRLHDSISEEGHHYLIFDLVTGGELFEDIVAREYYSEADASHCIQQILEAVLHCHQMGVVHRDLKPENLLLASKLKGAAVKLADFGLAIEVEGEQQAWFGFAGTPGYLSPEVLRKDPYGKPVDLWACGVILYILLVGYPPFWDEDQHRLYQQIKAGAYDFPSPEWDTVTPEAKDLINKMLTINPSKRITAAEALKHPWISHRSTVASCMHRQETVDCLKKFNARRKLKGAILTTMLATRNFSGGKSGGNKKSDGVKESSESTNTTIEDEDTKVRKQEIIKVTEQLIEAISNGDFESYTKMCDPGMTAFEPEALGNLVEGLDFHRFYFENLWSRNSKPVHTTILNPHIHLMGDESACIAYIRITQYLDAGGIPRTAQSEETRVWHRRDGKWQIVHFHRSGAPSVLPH
Chain of UniProt P35590 (whole entry, looked up): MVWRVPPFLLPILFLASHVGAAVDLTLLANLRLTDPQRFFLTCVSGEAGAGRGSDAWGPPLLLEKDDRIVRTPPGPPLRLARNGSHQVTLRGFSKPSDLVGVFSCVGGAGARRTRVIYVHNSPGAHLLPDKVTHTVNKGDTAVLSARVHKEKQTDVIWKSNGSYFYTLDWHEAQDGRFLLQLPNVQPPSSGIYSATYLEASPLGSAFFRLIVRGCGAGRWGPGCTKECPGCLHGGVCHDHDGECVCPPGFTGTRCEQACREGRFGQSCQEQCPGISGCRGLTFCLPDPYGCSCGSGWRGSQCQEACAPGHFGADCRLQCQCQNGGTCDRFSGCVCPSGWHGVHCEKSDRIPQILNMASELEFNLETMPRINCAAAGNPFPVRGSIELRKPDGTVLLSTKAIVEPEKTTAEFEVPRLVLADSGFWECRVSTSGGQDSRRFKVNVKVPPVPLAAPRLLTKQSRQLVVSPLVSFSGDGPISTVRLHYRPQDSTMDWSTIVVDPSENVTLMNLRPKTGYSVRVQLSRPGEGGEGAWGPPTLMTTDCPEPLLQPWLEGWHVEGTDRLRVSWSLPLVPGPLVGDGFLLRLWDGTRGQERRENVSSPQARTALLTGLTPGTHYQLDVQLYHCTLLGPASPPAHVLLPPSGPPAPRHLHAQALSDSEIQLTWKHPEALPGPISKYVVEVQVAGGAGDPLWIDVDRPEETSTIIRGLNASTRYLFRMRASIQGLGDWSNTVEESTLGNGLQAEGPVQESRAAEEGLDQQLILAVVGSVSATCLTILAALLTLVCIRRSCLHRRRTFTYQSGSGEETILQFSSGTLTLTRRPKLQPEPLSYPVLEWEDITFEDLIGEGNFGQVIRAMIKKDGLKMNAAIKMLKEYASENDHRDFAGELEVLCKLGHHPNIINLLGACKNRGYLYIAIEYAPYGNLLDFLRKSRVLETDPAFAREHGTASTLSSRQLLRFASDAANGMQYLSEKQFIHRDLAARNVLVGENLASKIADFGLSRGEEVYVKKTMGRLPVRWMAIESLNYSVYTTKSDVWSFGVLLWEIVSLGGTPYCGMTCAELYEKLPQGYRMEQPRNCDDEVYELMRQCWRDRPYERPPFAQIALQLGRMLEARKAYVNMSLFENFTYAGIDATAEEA
Chain of UniProt P49137 (whole entry, looked up): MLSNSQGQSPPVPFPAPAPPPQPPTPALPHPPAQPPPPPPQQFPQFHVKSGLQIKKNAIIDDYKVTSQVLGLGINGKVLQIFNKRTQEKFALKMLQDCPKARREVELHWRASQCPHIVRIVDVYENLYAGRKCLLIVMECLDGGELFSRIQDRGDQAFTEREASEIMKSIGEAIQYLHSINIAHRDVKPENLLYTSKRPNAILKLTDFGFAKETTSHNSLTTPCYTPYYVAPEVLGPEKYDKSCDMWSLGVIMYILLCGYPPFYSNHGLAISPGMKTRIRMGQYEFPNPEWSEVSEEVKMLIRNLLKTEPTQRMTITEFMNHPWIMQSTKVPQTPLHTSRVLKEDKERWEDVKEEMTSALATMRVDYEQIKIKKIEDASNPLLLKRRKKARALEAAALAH
Chain of UniProt Q16816 (whole entry, looked up): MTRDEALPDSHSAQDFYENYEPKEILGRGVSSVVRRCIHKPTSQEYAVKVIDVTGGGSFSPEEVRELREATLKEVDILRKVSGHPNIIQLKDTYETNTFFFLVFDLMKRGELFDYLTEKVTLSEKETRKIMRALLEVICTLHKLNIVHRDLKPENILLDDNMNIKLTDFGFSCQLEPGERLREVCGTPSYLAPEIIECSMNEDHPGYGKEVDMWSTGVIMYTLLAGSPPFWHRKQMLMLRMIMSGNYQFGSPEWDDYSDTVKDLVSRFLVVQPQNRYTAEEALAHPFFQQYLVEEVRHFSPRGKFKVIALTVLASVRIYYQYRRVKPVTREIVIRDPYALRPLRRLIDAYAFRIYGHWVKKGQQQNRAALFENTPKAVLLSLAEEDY

Set 1
Compound: CC(C)n1cnc(-c2ccc(F)cc2)c1-c1ncc(C(=O)Nc2ccc(N3CCN(C)CC3)cc2)[nH]1
test | system | conditions | patients with adverse event
Phase 2a trial, item: blood urea increased | human, idiopathic pulmonary fibrosis | 60 mg once daily, grade 3 | 0%
Phase 2a trial, item: haemoptysis | human, idiopathic pulmonary fibrosis | all compound arms, grade 4 | 0%
Phase 2a trial, item: blood glucose increased | human, idiopathic pulmonary fibrosis | 30 mg once daily, grade 3 | 0%
item: periorbital oedema, grade 5 | idiopathic pulmonary fibrosis patients | oral, 30 mg once daily | 0%
item: any adverse event, grade 5 | idiopathic pulmonary fibrosis patients | oral, 60 mg once daily | 0%
Phase 2a trial, item: hepatic steatosis | human, idiopathic pulmonary fibrosis | all compound arms total, grade 5 | 0%
Phase 2a trial, item: hypocalcaemia | human, idiopathic pulmonary fibrosis | 60 mg once daily, grade 5 | 0%
item: prostatic calcification, maximum grade 3 | idiopathic pulmonary fibrosis patients | dose not given, all compound arms pooled | 0%
item: abnormal liver function test, grade 3 | idiopathic pulmonary fibrosis patients | oral, 30 mg once daily | 0%
Phase 2a trial, item: haemoptysis | human, idiopathic pulmonary fibrosis | 60 mg once daily, grade 3 | 0%
Phase 2a trial, item: eosinophilia myalgia syndrome | human, idiopathic pulmonary fibrosis | 60 mg once daily, grade 2 | 0%
item: any adverse event, grade 4 | idiopathic pulmonary fibrosis patients | oral, 60 mg once daily | 0%
Phase 2a trial, item: hypoalbuminaemia | human, idiopathic pulmonary fibrosis | 60 mg once daily, grade 3 | 0%
Phase 2a trial, item: hypoalbuminaemia | human, idiopathic pulmonary fibrosis | 60 mg once daily, grade 4 | 0%
Phase 2a trial, item: eosinophilia myalgia syndrome | human, idiopathic pulmonary fibrosis | 60 mg once daily, grade 4 | 0%
item: ALT increase | patients with idiopathic pulmonary fibrosis | 30 mg twice daily, trial, together with: standard of care therapy | 0%
Phase 2a trial, item: blood creatine phosphokinase increased | human, idiopathic pulmonary fibrosis | all compound arms total, grade 2 | 0%

Set 2
SMILES: O=C(NCc1ncc(C(F)(F)F)cc1Cl)c1ccc2c(c1)C1(CCS(=O)(=O)CC1)[C@@H](C1CC1)N2S(=O)(=O)c1ccc(F)cc1
Tested at: 1 µM
target | test | remaining binding [%]
Calcium/calmodulin-dependent protein kinase type II subunit alpha (CAMK2A, Homo sapiens, UniProt Q9UQM7) | cell-free assay, competition with immobilised ligand | 90
MAP kinase-activated protein kinase 2 (MAPKAPK2, Homo sapiens, UniProt P49137) | cell-free assay, competition with immobilised ligand | 100
MAP/microtubule affinity-regulating kinase 4 (MARK4, Homo sapiens, UniProt Q96L34) | cell-free assay, competition with immobilised ligand | 100
Mitogen-activated protein kinase kinase kinase 6 (MAP3K6, Homo sapiens, UniProt O95382) | cell-free assay, competition with immobilised ligand | 68
Receptor-type tyrosine-protein kinase FLT3 (FLT3, Homo sapiens, UniProt P36888, D835H) | cell-free assay, competition with immobilised ligand | 100
Serine/threonine-protein kinase RIO3 (RIOK3, Homo sapiens, UniProt O14730) | cell-free assay, competition with immobilised ligand | 72
Transient receptor potential cation channel subfamily M member 6 (TRPM6, Homo sapiens, UniProt Q9BX84) | cell-free assay, competition with immobilised ligand | 92
Casein kinase I isoform gamma-1 (CSNK1G1, Homo sapiens, UniProt Q9HCP0) | cell-free assay, competition with immobilised ligand | 90
Beta-adrenergic receptor kinase 1 (GRK2, Homo sapiens, UniProt P25098) | cell-free assay, competition with immobilised ligand | 80
Proto-oncogene tyrosine-protein kinase receptor Ret (RET, Homo sapiens, UniProt P07949) | cell-free assay, competition with immobilised ligand | 100
Serine/threonine-protein kinase MRCK beta (CDC42BPB, Homo sapiens, UniProt Q9Y5S2) | cell-free assay, competition with immobilised ligand | 100
G protein-coupled receptor kinase 3 (GRK3, Homo sapiens, UniProt P35626) | cell-free assay, competition with immobilised ligand | 100
Ankyrin repeat and protein kinase domain-containing protein 1 (ANKK1, Homo sapiens, UniProt Q8NFD2) | cell-free assay, competition with immobilised ligand | 76
Membrane-associated tyrosine- and threonine-specific cdc2-inhibitory kinase (PKMYT1, Homo sapiens, UniProt Q99640) | cell-free assay, competition with immobilised ligand | 92
Cyclin-dependent kinase 13 (CDK13, Homo sapiens, UniProt Q14004) | cell-free assay, competition with immobilised ligand | 89
Serine/threonine-protein kinase pim-3 (PIM3, Homo sapiens, UniProt Q86V86) | cell-free assay, competition with immobilised ligand | 85
Tyrosine-protein kinase receptor Tie-1 (TIE1, Homo sapiens, UniProt P35590) | cell-free assay, competition with immobilised ligand | 95
Cyclin-dependent kinase 4 (CDK4, Homo sapiens, UniProt P11802) | cell-free assay, competition with immobilised ligand | 82
Glycogen synthase kinase-3 beta (GSK3B, Homo sapiens, UniProt P49841) | cell-free assay, competition with immobilised ligand | 90
Serine/threonine-protein kinase MRCK gamma (CDC42BPG, Homo sapiens, UniProt Q6DT37) | competition binding | 93

Set 3
SMILES: COc1ccc(S(=O)(=O)N(CCO)c2ccccc2CN(C)CC=Cc2ccc(Cl)cc2)cc1
Read-out: enzyme activity
Action: inhibitor
Tested at: 0.5 µM
Reference: control
target | remaining activity [%]
Calcium/calmodulin-dependent protein kinase type II subunit beta (CAMK2B, Homo sapiens, UniProt Q13554) | 100
Tyrosine-protein kinase receptor UFO (AXL, Homo sapiens, UniProt P30530) | 104
Ephrin type-B receptor 4 (EPHB4, Homo sapiens, UniProt P54760) | 104
Serine/threonine-protein kinase 16 (STK16, Homo sapiens, UniProt O75716) | 102
Tyrosine-protein kinase Blk (BLK, Homo sapiens, UniProt P51451) | 103
Ribosomal protein S6 kinase alpha-6 (RPS6KA6, Homo sapiens, UniProt Q9UK32) | 102
Testis-specific serine/threonine-protein kinase 2 (TSSK2, Homo sapiens, UniProt Q96PF2) | 107
Ribosomal protein S6 kinase alpha-5 (RPS6KA5, Homo sapiens, UniProt O75582) | 103
MAP kinase-activated protein kinase 3 (MAPKAPK3, Homo sapiens, UniProt Q16644) | 101
Homeodomain-interacting protein kinase 4 (HIPK4, Homo sapiens, UniProt Q8NE63) | 101
Cyclin-dependent kinase 6, with cyclin D3 (CDK6, Homo sapiens, UniProt Q00534) | 102
Serine/threonine-protein kinase 17A (STK17A, Homo sapiens, UniProt Q9UEE5) | 102
Dual specificity tyrosine-phosphorylation-regulated kinase 3 (DYRK3, Homo sapiens, UniProt O43781) | 113
cAMP-dependent protein kinase catalytic subunit gamma (PRKACG, Homo sapiens, UniProt P22612) | 104
Tyrosine-protein kinase Srms (SRMS, Homo sapiens, UniProt Q9H3Y6) | 101
Cyclin-dependent kinase 1, with cyclin B (CDK1, Homo sapiens, UniProt P06493) | 105
Tyrosine-protein kinase ABL1 (ABL1, Homo sapiens, UniProt P00519) | 100
Ephrin type-A receptor 4 (EPHA4, Homo sapiens, UniProt P54764) | 99.2
Mitogen-activated protein kinase kinase kinase kinase 4 (MAP4K4, Homo sapiens, UniProt O95819) | 97.6
Serine/threonine-protein kinase WNK3 (WNK3, Homo sapiens, UniProt Q9BYP7) | 99.4
Cyclin-dependent kinase 4, with cyclin D3 (CDK4, Homo sapiens, UniProt P11802) | 94.1
Ephrin type-B receptor 1 (EPHB1, Homo sapiens, UniProt P54762) | 93.3
Homeodomain-interacting protein kinase 2 (HIPK2, Homo sapiens, UniProt Q9H2X6) | 107
3-phosphoinositide-dependent protein kinase 1 (PDPK1, Homo sapiens, UniProt O15530) | 93.7
Phosphorylase b kinase gamma catalytic chain, skeletal muscle/heart isoform (PHKG1, Homo sapiens, UniProt Q16816) | 95.4

Set 4
Structure (SMILES): COc1ccc2[nH]c3c4[nH]c5ccc(OC)cc5c4c4c(c3c2c1)C(=O)NC4=O
Read-out: binding
Tested at: 1 µM
target | test | remaining binding [%]
TGF-beta receptor type-1 (TGFBR1, Homo sapiens, UniProt P36897) | competition with immobilised ligand | 100
Cyclin-dependent kinase 13 (CDK13, Homo sapiens, UniProt Q14004) |  | 100
Serine/threonine-protein kinase MARK1 (MARK1, Homo sapiens, UniProt Q9P0L2) |  | 100
Mitogen-activated protein kinase 6 (MAPK6, Homo sapiens, UniProt Q16659) |  | 84
Glycogen synthase kinase-3 beta (GSK3B, Homo sapiens, UniProt P49841) |  | 68
Tyrosine-protein kinase Fes/Fps (FES, Homo sapiens, UniProt P07332) |  | 86
Tyrosine-protein kinase Lyn (LYN, Homo sapiens, UniProt P07948) | competition with immobilised ligand | 69
Mast/stem cell growth factor receptor Kit (KIT, Homo sapiens, UniProt P10721, L576P) |  | 8.2
Serine/threonine-protein kinase PAK 3 (PAK3, Homo sapiens, UniProt O75914) |  | 4.2
Cyclin-dependent kinase 2 homolog (CRK2, Plasmodium falciparum, UniProt P61075) |  | 82
Serine/threonine-protein kinase SIK1 (SIK1, Homo sapiens, UniProt P57059) | competition with immobilised ligand | 67
Mitogen-activated protein kinase kinase kinase 20 (MAP3K20, Homo sapiens, UniProt Q9NYL2) | competition with immobilised ligand | 100
Bone morphogenetic protein receptor type-1A (BMPR1A, Homo sapiens, UniProt P36894) | competition with immobilised ligand | 100
Protein kinase C eta type (PRKCH, Homo sapiens, UniProt P24723) |  | 35
Phosphatidylinositol 4,5-bisphosphate 3-kinase catalytic subunit alpha isoform (PIK3CA, Homo sapiens, UniProt P42336, H1047L) |  | 74
Hepatocyte growth factor receptor (MET, Homo sapiens, UniProt P08581, Y1235D) |  | 76
Mitogen-activated protein kinase kinase kinase 9 (MAP3K9, Homo sapiens, UniProt P80192) |  | 2.2
Serine/threonine-protein kinase DCLK1 (DCLK1, Homo sapiens, UniProt O15075) | competition with immobilised ligand | 90

For quick reference, copied from above (set 4):
target | test | remaining binding [%]
Mitogen-activated protein kinase 6 (MAPK6, Homo sapiens, UniProt Q16659) |  | 84
Glycogen synthase kinase-3 beta (GSK3B, Homo sapiens, UniProt P49841) |  | 68
Tyrosine-protein kinase Fes/Fps (FES, Homo sapiens, UniProt P07332) |  | 86
Tyrosine-protein kinase Lyn (LYN, Homo sapiens, UniProt P07948) | competition with immobilised ligand | 69
Mast/stem cell growth factor receptor Kit (KIT, Homo sapiens, UniProt P10721, L576P) |  | 8.2
Serine/threonine-protein kinase PAK 3 (PAK3, Homo sapiens, UniProt O75914) |  | 4.2
